Assay results pooled from the literature.
A part holds a random share of what one study measured.
Sequence of UniProt Q15835 (whole entry, looked up): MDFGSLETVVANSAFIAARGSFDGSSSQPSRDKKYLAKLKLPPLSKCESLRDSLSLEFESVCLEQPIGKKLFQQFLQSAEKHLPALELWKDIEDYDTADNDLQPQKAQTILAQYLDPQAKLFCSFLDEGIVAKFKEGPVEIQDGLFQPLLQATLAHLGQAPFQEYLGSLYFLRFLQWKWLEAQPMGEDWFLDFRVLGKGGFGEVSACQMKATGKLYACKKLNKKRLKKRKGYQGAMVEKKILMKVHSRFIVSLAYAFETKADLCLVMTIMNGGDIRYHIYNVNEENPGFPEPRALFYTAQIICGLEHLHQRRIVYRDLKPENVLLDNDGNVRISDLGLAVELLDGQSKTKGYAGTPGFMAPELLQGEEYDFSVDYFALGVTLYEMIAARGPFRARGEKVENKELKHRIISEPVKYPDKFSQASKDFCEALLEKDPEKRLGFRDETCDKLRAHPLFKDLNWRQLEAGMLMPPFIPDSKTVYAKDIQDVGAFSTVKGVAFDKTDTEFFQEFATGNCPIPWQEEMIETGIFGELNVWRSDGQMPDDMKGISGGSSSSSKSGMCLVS
Sequence of UniProt O43318 (whole entry, looked up): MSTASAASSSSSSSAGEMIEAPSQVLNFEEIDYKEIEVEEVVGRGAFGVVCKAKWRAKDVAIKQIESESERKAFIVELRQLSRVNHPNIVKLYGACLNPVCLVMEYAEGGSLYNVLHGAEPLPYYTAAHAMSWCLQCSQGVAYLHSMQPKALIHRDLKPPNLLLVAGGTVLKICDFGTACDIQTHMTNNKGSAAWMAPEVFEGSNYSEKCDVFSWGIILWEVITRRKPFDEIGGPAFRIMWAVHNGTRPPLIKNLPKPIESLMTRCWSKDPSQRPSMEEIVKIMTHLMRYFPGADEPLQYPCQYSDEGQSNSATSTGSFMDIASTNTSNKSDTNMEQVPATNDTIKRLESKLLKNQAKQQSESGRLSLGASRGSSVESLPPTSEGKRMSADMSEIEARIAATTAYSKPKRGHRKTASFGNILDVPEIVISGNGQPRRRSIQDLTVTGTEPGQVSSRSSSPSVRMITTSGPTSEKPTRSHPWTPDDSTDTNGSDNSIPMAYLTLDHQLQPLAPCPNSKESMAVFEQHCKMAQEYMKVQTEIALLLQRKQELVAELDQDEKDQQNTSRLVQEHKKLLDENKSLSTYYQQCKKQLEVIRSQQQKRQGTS
Sequence of UniProt O75676 (whole entry, looked up): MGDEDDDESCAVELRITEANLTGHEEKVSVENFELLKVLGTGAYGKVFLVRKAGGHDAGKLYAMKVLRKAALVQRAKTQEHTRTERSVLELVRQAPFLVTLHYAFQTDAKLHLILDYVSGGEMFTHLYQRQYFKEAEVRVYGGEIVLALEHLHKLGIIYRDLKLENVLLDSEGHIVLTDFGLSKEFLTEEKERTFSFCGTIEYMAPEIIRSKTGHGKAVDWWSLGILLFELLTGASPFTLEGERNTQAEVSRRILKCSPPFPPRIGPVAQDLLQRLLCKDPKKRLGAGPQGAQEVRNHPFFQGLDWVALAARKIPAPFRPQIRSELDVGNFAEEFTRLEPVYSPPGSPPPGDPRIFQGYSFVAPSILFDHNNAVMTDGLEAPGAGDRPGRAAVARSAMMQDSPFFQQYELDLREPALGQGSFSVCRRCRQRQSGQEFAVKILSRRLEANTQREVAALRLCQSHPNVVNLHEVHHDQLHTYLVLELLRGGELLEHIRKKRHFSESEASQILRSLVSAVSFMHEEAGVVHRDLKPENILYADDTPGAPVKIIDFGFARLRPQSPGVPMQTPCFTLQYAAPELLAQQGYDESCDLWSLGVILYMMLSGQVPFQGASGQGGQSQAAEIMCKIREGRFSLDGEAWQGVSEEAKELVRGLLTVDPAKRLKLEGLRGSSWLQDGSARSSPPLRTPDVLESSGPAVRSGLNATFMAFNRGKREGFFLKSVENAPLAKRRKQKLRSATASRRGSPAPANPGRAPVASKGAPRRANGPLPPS
Sequence of UniProt Q06418 (whole entry, looked up): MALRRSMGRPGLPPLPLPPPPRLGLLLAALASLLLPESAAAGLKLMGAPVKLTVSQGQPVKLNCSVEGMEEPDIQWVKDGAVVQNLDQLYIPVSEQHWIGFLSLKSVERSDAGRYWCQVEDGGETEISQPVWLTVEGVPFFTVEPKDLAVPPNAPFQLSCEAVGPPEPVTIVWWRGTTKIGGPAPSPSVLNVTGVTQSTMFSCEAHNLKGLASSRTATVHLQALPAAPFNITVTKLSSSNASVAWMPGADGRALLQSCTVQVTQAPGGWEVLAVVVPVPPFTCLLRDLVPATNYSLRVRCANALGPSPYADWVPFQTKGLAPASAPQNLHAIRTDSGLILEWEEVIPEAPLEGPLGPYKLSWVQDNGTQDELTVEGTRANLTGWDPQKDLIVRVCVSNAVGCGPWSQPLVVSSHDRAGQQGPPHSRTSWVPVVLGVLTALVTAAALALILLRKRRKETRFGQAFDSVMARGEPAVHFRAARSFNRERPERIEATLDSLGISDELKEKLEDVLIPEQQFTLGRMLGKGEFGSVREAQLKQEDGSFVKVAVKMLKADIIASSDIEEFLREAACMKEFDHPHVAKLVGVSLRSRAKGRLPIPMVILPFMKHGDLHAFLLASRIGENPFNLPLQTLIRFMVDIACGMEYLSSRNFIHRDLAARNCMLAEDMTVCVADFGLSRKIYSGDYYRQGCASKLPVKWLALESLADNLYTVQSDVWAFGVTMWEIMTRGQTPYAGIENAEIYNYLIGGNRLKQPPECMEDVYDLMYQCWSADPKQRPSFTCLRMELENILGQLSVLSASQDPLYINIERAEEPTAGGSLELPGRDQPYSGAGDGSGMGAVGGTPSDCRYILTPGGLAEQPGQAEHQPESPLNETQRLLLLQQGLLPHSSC
Sequence of UniProt P35916 (whole entry, looked up): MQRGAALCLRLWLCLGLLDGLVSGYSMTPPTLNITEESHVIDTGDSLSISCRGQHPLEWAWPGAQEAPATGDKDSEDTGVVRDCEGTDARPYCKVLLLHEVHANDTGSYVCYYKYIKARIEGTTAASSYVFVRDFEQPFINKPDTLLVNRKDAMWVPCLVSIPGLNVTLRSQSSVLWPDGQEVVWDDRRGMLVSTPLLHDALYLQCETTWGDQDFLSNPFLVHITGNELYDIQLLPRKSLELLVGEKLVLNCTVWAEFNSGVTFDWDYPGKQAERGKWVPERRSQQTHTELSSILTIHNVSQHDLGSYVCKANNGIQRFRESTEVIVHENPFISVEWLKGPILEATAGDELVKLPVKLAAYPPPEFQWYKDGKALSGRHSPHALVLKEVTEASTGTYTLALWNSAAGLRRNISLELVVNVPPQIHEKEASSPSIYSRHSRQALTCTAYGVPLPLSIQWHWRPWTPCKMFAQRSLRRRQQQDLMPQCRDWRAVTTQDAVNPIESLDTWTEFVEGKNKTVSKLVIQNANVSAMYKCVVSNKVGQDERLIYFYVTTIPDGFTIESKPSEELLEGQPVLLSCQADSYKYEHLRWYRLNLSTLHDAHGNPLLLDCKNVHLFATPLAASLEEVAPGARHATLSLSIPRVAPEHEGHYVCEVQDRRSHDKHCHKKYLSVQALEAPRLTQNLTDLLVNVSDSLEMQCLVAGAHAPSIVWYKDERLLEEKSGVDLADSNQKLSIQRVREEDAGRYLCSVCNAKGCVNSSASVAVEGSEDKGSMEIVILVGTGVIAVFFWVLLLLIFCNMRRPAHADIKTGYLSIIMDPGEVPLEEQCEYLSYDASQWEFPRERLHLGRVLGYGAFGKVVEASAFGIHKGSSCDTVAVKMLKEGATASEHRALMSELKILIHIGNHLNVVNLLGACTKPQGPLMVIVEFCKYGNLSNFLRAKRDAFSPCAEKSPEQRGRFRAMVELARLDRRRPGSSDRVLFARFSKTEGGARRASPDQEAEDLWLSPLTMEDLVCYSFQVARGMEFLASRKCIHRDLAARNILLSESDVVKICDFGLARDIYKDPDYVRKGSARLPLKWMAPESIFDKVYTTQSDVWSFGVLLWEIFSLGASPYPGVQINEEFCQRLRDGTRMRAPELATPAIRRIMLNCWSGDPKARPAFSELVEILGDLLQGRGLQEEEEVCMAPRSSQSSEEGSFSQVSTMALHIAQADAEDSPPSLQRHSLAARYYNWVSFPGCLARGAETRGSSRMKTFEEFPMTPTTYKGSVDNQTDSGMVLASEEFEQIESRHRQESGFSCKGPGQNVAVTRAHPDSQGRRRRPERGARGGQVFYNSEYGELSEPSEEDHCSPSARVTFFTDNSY

Study 1 — cell line: mouse MPNST tumor cells; technique: high-content nuclear imaging; item: cell number; tested at: 10 µM; time: 12 h; notes: mean of 2 replicates; reference: plate mean; direction: higher = more cells
Structure (SMILES)	nuclei count [z-score]
O=C(NCCO[N+](=O)[O-])c1cccnc1	2
CCN(CC)CCOC(=O)C1(c2ccc([N+](=O)[O-])cc2)CCCC1	2.21
Cc1cn(CCN2CCN(c3ccccc3-c3cc(C#N)cc(C(=O)NCCCN4CCCC4)c3)CC2)c2ccccc12	-6
CC1Cc2ccccc2N1NC(=O)c1ccc(Cl)c(S(N)(=O)=O)c1 (stereo not drawn)	-0.561
N[C@H](C(=O)O)[C@H](OCc1ccccc1)C(=O)O (racemic)	1.36
CCCc1nc(C(C)(C)O)c(C(=O)OCc2oc(=O)oc2C)n1Cc1ccc(-c2ccccc2-c2nnn[nH]2)cc1	0.522

Study 2 — tested at: 1 µM
Structure (SMILES): CO[C@@H](C)c1c(Nc2ccc([C@@H](N(C)C(=O)C3CCS(=O)(=O)CC3)C(F)(F)F)cc2)cnc2cc(Cl)nn12
target	effect on	technique	remaining binding [%]
ACVR1 (Homo sapiens, UniProt Q04771)	cell-free assay	competition with immobilised ligand	85
IGF1R (Homo sapiens, UniProt P08069)	cell-free assay	competition with immobilised ligand	97
FLT4 (Homo sapiens, UniProt P35916)	cell-free assay	competition with immobilised ligand	84
Ribosomal protein S6 kinase alpha-4, C-terminal kinase domain (RPS6KA4, Homo sapiens, UniProt O75676)	cell-free assay	competition with immobilised ligand	100
MET (Homo sapiens, UniProt P08581)	cell-free assay	competition with immobilised ligand	85
CAMKK1 (Homo sapiens, UniProt Q8N5S9)	cell-free assay	competition with immobilised ligand	98
EGFR (Homo sapiens, UniProt P00533, del752-759)	cell-free assay	competition with immobilised ligand	93
FGFR3 (Homo sapiens, UniProt P22607)	cell-free assay	competition with immobilised ligand	90
TLK2 (Homo sapiens, UniProt Q86UE8)	cell-free assay	competition with immobilised ligand	100
TEK (Homo sapiens, UniProt Q02763)	cell-free assay	competition with immobilised ligand	90
Tyrosine-protein kinase ABL1, phosphorylated (ABL1, Homo sapiens, UniProt P00519, F317I)	binding	–	100
GRK1 (Homo sapiens, UniProt Q15835)	cell-free assay	competition with immobilised ligand	86
STK25 (Homo sapiens, UniProt O00506)	cell-free assay	competition with immobilised ligand	84
Ribosomal protein S6 kinase alpha-1, N-terminal kinase domain (RPS6KA1, Homo sapiens, UniProt Q15418)	cell-free assay	competition with immobilised ligand	65
YES1 (Homo sapiens, UniProt P07947)	cell-free assay	competition with immobilised ligand	100
MAP3K7 (Homo sapiens, UniProt O43318)	cell-free assay	competition with immobilised ligand	84
TYRO3 (Homo sapiens, UniProt Q06418)	cell-free assay	competition with immobilised ligand	99

Study 3 — effect on: enzyme activity; action: inhibitor; tested at: 0.5 µM; reference: control
Target: Tyrosine-protein kinase ITK/TSK (ITK, Homo sapiens, UniProt Q08881)
Sequence of UniProt Q08881 (whole entry, looked up): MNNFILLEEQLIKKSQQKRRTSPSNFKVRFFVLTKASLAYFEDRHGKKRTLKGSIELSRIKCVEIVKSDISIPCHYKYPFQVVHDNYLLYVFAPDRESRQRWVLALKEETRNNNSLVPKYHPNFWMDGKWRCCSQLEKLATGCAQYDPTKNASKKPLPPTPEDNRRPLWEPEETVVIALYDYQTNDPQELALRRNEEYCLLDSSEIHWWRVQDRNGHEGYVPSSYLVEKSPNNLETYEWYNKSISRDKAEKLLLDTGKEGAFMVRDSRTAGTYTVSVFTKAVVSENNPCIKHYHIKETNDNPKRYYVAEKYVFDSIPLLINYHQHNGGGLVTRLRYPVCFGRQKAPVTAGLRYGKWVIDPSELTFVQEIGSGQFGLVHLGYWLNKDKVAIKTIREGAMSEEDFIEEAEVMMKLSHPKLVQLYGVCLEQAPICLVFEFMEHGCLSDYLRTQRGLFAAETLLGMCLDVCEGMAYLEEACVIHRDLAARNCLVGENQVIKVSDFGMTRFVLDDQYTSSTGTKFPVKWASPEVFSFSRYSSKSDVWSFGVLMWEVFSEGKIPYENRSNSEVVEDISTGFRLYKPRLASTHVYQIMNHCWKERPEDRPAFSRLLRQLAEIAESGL
Structure (SMILES)	remaining activity [%]
O=C1NC(=O)C(c2cn(CCCn3ccnc3)c3ccccc23)=C1Nc1ccccc1	93.9
CO[C@H]1C[C@@H]2CC[C@@H](C)[C@@](O)(O2)C(=O)C(=O)N2CCCC[C@H]2C(=O)O[C@H]([C@H](C)C[C@@H]2CC[C@@H](O)[C@H](OC)C2)CC(=O)[C@H](C)/C=C(\C)[C@@H](O)[C@@H](OC)C(=O)[C@H](C)C[C@H](C)/C=C/C=C/C=C/1C	92.5
Nc1ncnc2n[nH]c(Nc3ccc(F)cc3)c12	93.9
COc1ccc(OC)c2c(=S)c3ccccc3[nH]c12	101
O=S(=O)(c1cccc2cnccc12)N1CCCNCC1	90.7
NCCNc1ncc(C(N)=O)c(Nc2cccc(C(F)(F)F)c2)n1	93
Cc1nc(-c2ccccc2)c(-c2ccncc2)o1	97.1
CCOC(=O)c1c(C)[nH]c(/C=C2\C(=O)Nc3ccccc32)c1C	86.3
CNC(=O)c1cc(Oc2ccc(NC(=O)Nc3ccc(Cl)c(C(F)(F)F)c3)cc2)ccn1	106
CN(C)c1ccc(C=C2C(=O)Nc3ccccc32)cc1	99
Cc1cccc(-c2[nH]c(C(C)(C)C)nc2-c2ccc3c(c2)OCO3)n1	95.8
Nc1ccc2ncnc(NCCc3ccc(Oc4ccccc4)cc3)c2c1	104
Cc1ccc(NC(=O)c2ccc(CN3CCN(C)CC3)cc2)cc1Nc1nc(-c2cccnc2)cs1	98.7

Study 4 — technique: trypan blue exclusion; time: 48 h; reference: untreated
SMILES: O=C(NC1CCNCC1)c1[nH]ncc1NC(=O)c1c(Cl)cccc1Cl
cell line	tested at	viability
HH	0.05 µM	103%
HuT78	0.01 µM	107%
HH	1 µM	13.6%

Excerpt of the above (study 2):
target	effect on	technique	remaining binding [%]
EGFR (Homo sapiens, UniProt P00533, del752-759)	cell-free assay	competition with immobilised ligand	93
FGFR3 (Homo sapiens, UniProt P22607)	cell-free assay	competition with immobilised ligand	90
TLK2 (Homo sapiens, UniProt Q86UE8)	cell-free assay	competition with immobilised ligand	100
TEK (Homo sapiens, UniProt Q02763)	cell-free assay	competition with immobilised ligand	90
Tyrosine-protein kinase ABL1, phosphorylated (ABL1, Homo sapiens, UniProt P00519, F317I)	binding	–	100
